Measured values collected from several papers.
Compare with care: the assays were run in different laboratories. ± marks the error that the study gave.

| SMILES | test | system | setting | AUC(0-last) |
| --- | --- | --- | --- | --- |
| CCOc1ccc(Cc2cc([C@@H]3S[C@H](CO)[C@@H](O)[C@H](O)[C@H]3O)c(OC)cc2C)cc1 |  | Japanese type 2 diabetes patients, plasma | oral, 5 mg single dose, eGFR ≥90 mL/min/1.73 m^2 | 1990 ± 499 ng·h/mL |
| CCCC[C@H](NC(C)=O)C(=O)N[C@H]1CCC(=O)NC[C@@H](C(=O)N[C@@H](Cc2c[nH]c3ccccc23)C(N)=O)NC(=O)[C@H](CCCNC(=N)N)NC(=O)[C@@H](Cc2ccccc2)NC(=O)[C@H](Cc2c[nH]cn2)NC1=O |  | beagle dog, female, plasma | subcutaneous, 40.0 mg/kg daily, day 28 | 6620 ng·h/mL |
| COc1cccc(N2CCN(C3=Nc4c(F)cccc4[C@H](CC(=O)O)N3c3cc(C(F)(F)F)ccc3OC)CC2)c1 | UHPLC-MS/MS | healthy women, plasma | intravenous infusion, 720 mg single dose, 60 min infusion, HPβCD formulation | 167000 ± 23300 ng·h/mL |
| CN[C@H](CC(C)C)C(=O)N[C@H]1C(=O)N[C@@H](CC(N)=O)C(=O)N[C@H]2C(=O)N[C@H]3C(=O)N[C@H](C(=O)N[C@H](C(=O)O)c4cc(O)cc(O)c4-c4cc3ccc4O)[C@H](O)c3ccc(c(Cl)c3)Oc3cc2cc(c3O[C@@H]2O[C@H](CO)[C@@H](O)[C@H](O)[C@H]2O[C@H]2C[C@](C)(N)[C@H](O)[C@H](C)O2)Oc2ccc(cc2Cl)[C@H]1O | enzyme immunoassay | Danish Landrace pigs, plasma, free | intravenous, 1000 mg, 100 min infusion, together with: meropenem | 121000 ng·h/mL |
| CCOCCn1c(C2CCN(CCc3ccc(C(C)(C)C(=O)O)cc3)CC2)nc2ccccc21 |  | healthy human subjects, plasma | oral, 20 mg, geometric LS mean | 699 ng·h/mL |
| C[C@]12C=CC(=O)C=C1CC[C@@H]1[C@@H]2[C@@H](O)C[C@@]2(C)[C@H]1C[C@H]1O[C@@H](C3CCCCC3)O[C@]12C(=O)CO |  | children with asthma, serum | inhaled, 80 µg ciclesonide, day 7, HFA-MDI with spacer, steady state | 0.261 ± 0.019 ng·h/mL |
| CS(=O)(=O)n1cc2c(n1)CN([C@H]1CO[C@H](c3cc(F)ccc3F)[C@@H](N)C1)C2 |  | healthy male human, plasma | oral, 12.5 mg, fasted single dose | 11.4 µM·h |
| C[C@@H](O)[C@H]1C(=O)N2C(C(=O)O)=C(S[C@@H]3CN[C@H](C(=O)N(C)C)C3)[C@H](C)[C@H]12 | microdialysis | Danish Landrace pigs, cancellous bone | intravenous, 1000 mg, 10 min infusion, together with: vancomycin | 19300 ng·h/mL |

A few entries again:
| SMILES | test | system | setting | AUC(0-last) |
| --- | --- | --- | --- | --- |
| CS(=O)(=O)n1cc2c(n1)CN([C@H]1CO[C@H](c3cc(F)ccc3F)[C@@H](N)C1)C2 |  | healthy male human, plasma | oral, 12.5 mg, fasted single dose | 11.4 µM·h |
